Measured values collected from several papers.
Compare with care: the assays were run in different laboratories. ± marks the error that the study gave.
Napepld: N-acyl-phosphatidylethanolamine-hydrolyzing phospholipase D (Napepld, Mus musculus, UniProt Q8BH82)
GLP1R: Glucagon-like peptide 1 receptor (GLP1R, Homo sapiens, UniProt P43220)
DRD2: D(2) dopamine receptor (DRD2, Homo sapiens, UniProt P14416)
AGTR1: Type-1 angiotensin II receptor (AGTR1, Homo sapiens, UniProt P30556)
NMUR1: Neuromedin-U receptor 1 (NMUR1, Homo sapiens, UniProt Q9HB89)

`Cc1ccc(C)c2sc(NC(=O)C3CCN(S(=O)(=O)c4ccc(F)cc4)CC3)nc12` gave an Emax of over 2 fold (Napepld; enzyme activity, activator, fluorescence, PED-A1 substrate; relative to: vehicle).
The Emax of `COc1ccc(-c2cc(C(F)(F)F)nc(S(=O)(=O)CCCC(=O)Nc3ccc(F)c(Cl)c3)n2)cc1OC` is reported as 58 ± 34% (GLP1R; cAMP accumulation, positive allosteric modulator; HEK-293T overexpressing GLP1R; together with: EC20 GLP-1).
With `CCCn1ccc2c(N3CCN(CCCCOc4ccc5c(c4)NC(=O)CC5)CC3)cccc21` the Emax was 32% (DRD2; β-arrestin recruitment, agonist).
With `CC[C@H](C)[C@H](NC(=O)[C@@H]1CCCN1C(=O)[C@H](Cc1c[nH]cn1)NC(=O)[C@@H](NC(=O)[C@@H](NC(=O)[C@@H](NC(=O)[C@H](CCCNC(=N)N)NC(=O)CNC)C(C)C)[C@@H](C)CC)[C@@H](C)CC)C(=O)O` the Emax was 42% (AGTR1; β-arrestin recruitment, agonist; CHO).
`O=C(Nc1nc2ccccc2s1)C1CCN(S(=O)(=O)c2ccc(F)c(Cl)c2)CC1` gave an Emax of under 1.2 fold (Napepld; enzyme activity, activator, fluorescence, PED-A1 substrate; relative to: vehicle).
`CCCCCCCCCCCCCCCCSCc1cc2cc(c1)CSC[C@H](N)C(=O)NCCCCCC(=O)N[C@@H](Cc1ccccc1)C(=O)N[C@@H](CC(C)C)C(=O)N[C@@H](Cc1ccccc1)C(=O)N[C@@H](CCCNC(=N)N)C(=O)N1Cc3ccccc3C[C@H]1C(=O)N[C@@H](CCCNC(=N)N)C(=O)N[C@@H](CC(N)=O)C(=O)NCCCCCC(=O)N[C@H](C(N)=O)CSC2` has an Emax of 134 ± 22% (NMUR1; calcium signalling, agonist; HEK293 expressing receptor; 10 µM; relative to: human NmU).
For `COc1cc(Cl)ccc1NC(=O)CCCS(=O)(=O)c1nc(-c2ccc(OC)c(OC)c2)cc(C(F)(F)F)n1`, the Emax was 36% (GLP1R; cAMP, agonist).
`CCCCCCCCCCCCCCCC(=O)NCCOCCOCCOCCOCCOCCOCCOCCOCCOCCOCCOCCOCCC(=O)NC(C)(C)C(=O)N[C@@H](Cc1ccccc1)C(=O)N[C@@H](CC(C)C)C(=O)N[C@@H](Cc1ccccc1)C(=O)N[C@@H](CCCNC(=N)N)C(=O)N1CCC[C@H]1C(=O)N[C@@H](CCCNC(=N)N)C(=O)N[C@@H](CC(N)=O)C(N)=O` has an Emax of 92.8 ± 2.2% (NMUR2 (Homo sapiens, UniProt Q9GZQ4); calcium signalling; HEK293; relative to: human neuromedin U).
`CC[C@H](C)[C@H](NC(=O)[C@H](CO)NC(=O)[C@H](Cc1ccc(O)cc1)NC(=O)[C@H](CC(=O)O)NC(=O)[C@H](CO)NC(=O)[C@@H](NC(=O)[C@H](Cc1ccccc1)NC(=O)[C@@H](NC(=O)CNC(=O)[C@@H]1CCCN1C(=O)[C@H](C)NC(=O)[C@@H](N)Cc1ccc(O)cc1)[C@@H](C)O)[C@@H](C)CC)C(=O)N[C@@H](C)C(=O)N[C@@H](CCSC)C(=O)N[C@@H](CC(=O)O)C(=O)N[C@@H](CCCCN)C(=O)N[C@H](C(=O)N[C@@H](CCCNC(=N)N)C(=O)N[C@@H](CCC(N)=O)C(=O)N[C@@H](CCC(N)=O)C(=O)N[C@@H](CC(=O)O)C(=O)N[C@@H](Cc1ccccc1)C(=O)N[C@H](C(=O)N[C@@H](CC(N)=O)C(=O)N[C@@H](Cc1c[nH]c2ccccc12)C(=O)N[C@@H](CC(C)C)C(=O)N[C@@H](CC(C)C)C(=O)N[C@@H](C)C(=O)N[C@@H](CCC(N)=O)C(=O)N[C@@H](CCCNC(=N)N)C(=O)NCC(=O)N[C@@H](CCCCN)C(=O)N[C@@H](CCCCN)C(=O)N[C@@H](CO)C(=O)N[C@@H](CC(=O)O)C(=O)N[C@@H](Cc1c[nH]c2ccccc12)C(=O)N[C@@H](CCCCN)C(=O)N[C@@H](Cc1c[nH]cn1)C(=O)N[C@@H](CC(N)=O)C(=O)N[C@H](C(=O)N[C@H](C(=O)N[C@@H](CCC(N)=O)C(=O)O)[C@@H](C)O)[C@@H](C)CC)C(C)C)[C@@H](C)CC` has an Emax of 67% (GIPR (Homo sapiens, UniProt P48546); cAMP, agonist; COS-7).
`COc1ccc(-c2cc(C(F)(F)F)nc(S(=O)(=O)CCCC(=O)Nc3ccccc3F)n2)cc1OC` has an Emax of 61 ± 27% (GLP1R; cAMP accumulation, positive allosteric modulator; HEK-293T overexpressing GLP1R; together with: EC20 GLP-1).
For `CCCCSC[C@H](NC(=O)[C@H](Cc1ccc(O)cc1)NC(=O)[C@@H](NC(=O)[C@H](CCCNC(=N)N)NC(=O)CNC)C(C)C)C(=O)N[C@@H](Cc1c[nH]cn1)C(=O)N1CCC[C@H]1C(=O)N[C@@H](CC(C)C)C(=O)O`, the Emax was 83% (AGTR1; β-arrestin recruitment, agonist; CHO).
`COc1ccc(-c2cc(C(F)(F)F)nc(NCc3cccnc3)n2)cc1OC` gave an Emax of 35 ± 0.8% (GLP1R; cAMP accumulation, positive allosteric modulator; HEK-293T overexpressing GLP1R; together with: EC20 GLP-1).
`Cc1cc(C)c2sc(NC(=O)C3CCN(S(=O)(=O)c4ccc(F)cc4)CC3)nc2c1` gave an Emax of over 2 fold (Napepld; enzyme activity, activator, fluorescence, PED-A1 substrate; relative to: vehicle).
For `CCCCCCCCCCCCCCCCN(CCCCCCCCCCCCCCCC)CCCCCC(=O)NC(C)(C)C(=O)N[C@@H](Cc1ccccc1)C(=O)N[C@@H](CC(C)C)C(=O)N[C@@H](Cc1ccccc1)C(=O)N[C@@H](CCCNC(=N)N)C(=O)N1CCC[C@H]1C(=O)N[C@@H](CCCNC(=N)N)C(=O)N[C@@H](CC(N)=O)C(N)=O`, the Emax was 81 ± 3.6% (NMUR1; calcium signaling, agonist; HEK293 expressing NMUR1; 30 µM; relative to: human neuromedin U max).
`COc1cccc(-c2cc(C(F)(F)F)nc(NCc3ccccc3)n2)c1` has an Emax of 32 ± 10% (GLP1R; cAMP accumulation, positive allosteric modulator; HEK-293T overexpressing GLP1R; together with: EC20 GLP-1).
`C[C@@H]1CN(c2ccnc(C(=O)N[C@H]3C[C@@H]3c3ccccc3)c2)CC[C@@H]1O` has an Emax of over 1.5 fold (SLC6A8 (Homo sapiens, UniProt P48029, P544L); creatine transport; U-2 OS P544L knock-in; pulse dosing).
The Emax of `Cn1ccc2c(N3CCN(CCCCOc4ccc5c(c4)NC(=O)CC5)CC3)cccc21` is reported as 33% (DRD2; β-arrestin recruitment, agonist, BRET).
`COc1ccccc1-c1cc(C(F)(F)F)nc(S(=O)(=O)CCCC(=O)Nc2ccn(Cc3ccc(C)cc3)n2)n1` has an Emax of 32% (GLP1R; cAMP, agonist).

For quick reference, copied from above:
`CCCCCCCCCCCCCCCC(=O)NCCOCCOCCOCCOCCOCCOCCOCCOCCOCCOCCOCCOCCC(=O)NC(C)(C)C(=O)N[C@@H](Cc1ccccc1)C(=O)N[C@@H](CC(C)C)C(=O)N[C@@H](Cc1ccccc1)C(=O)N[C@@H](CCCNC(=N)N)C(=O)N1CCC[C@H]1C(=O)N[C@@H](CCCNC(=N)N)C(=O)N[C@@H](CC(N)=O)C(N)=O` has an Emax of 92.8 ± 2.2% (NMUR2 (Homo sapiens, UniProt Q9GZQ4); calcium signalling; HEK293; relative to: human neuromedin U).
